# Published values pooled from the literature.
# Lines come from different studies, so protocols differ.
# Target: Phosphatidylinositol 4,5-bisphosphate 3-kinase catalytic subunit gamma isoform (PIK3CG, Homo sapiens, UniProt P48736)
SMILES,test,test system,setting,scale,quantity,value
COc1ccc(NC(=O)Nc2ccc3c(c2)C(=O)N(C(C)CO)CC(C)C(CN(C)Cc2ccc4c(c2)OCO4)O3)cc1 (centres unmarked),"binding, competition with immobilised ligand",,10 µM,,remaining binding,100%
CN1CCN(Cc2ccc(NC(=O)c3cccc(C#Cc4cnc(N)c5ncccc45)c3)cc2C(F)(F)F)CC1,"cell-free assay, competition with immobilised ligand",,0.5 µM,,remaining binding,100%
CC(=O)c1cnc(N)nc1N1CC[C@H]1c1nn2ccc(Cl)c2c(=O)n1-c1ccccc1,KiNativ,intact human PBMC,"0.001 µM, 1 h",,target engagement,-22.7%
C=CC(=O)N1CCCC(n2c(=O)c3ncccc3n(Cc3ccc(Oc4ccccc4)cc3)c2=O)C1 (centres unmarked),"cell-free assay, competition with immobilised ligand",,1 µM,,remaining binding,100%
C=CC(=O)N1CCc2ccc(-n3c(=O)ccc4cnc5ccc(-c6cnn(C)c6)cc5c43)cc21,KINOMEscan,,1 µM,relative to: DMSO control,remaining binding,100%
C=CC(=O)Nc1cccc(-c2cnc3[nH]cc(C(=O)NC(C)(C)C)c3n2)c1,"enzyme activity, inhibitor",,0.1 µM,,inhibition,14%
CNS(=O)(=O)Nc1nccc(Cc2c(C)c3ccc(Oc4ncccc4F)cc3oc2=O)c1F,"binding, competition with immobilised ligand",,10 µM,,remaining binding,100%
O=C(Cc1ccc(OCc2ccccc2)cc1)NC1(C(=O)O)CCN(C(=O)c2ccc(-c3cccc(Cl)c3)cc2)CC1,"enzyme activity, inhibitor",,10 µM,,activity vs control,100%
CS(=O)(=O)Nc1cccc(-c2csc3cnc(Nc4ccc(N5CCN(CCCCCOc6cccc7c6C(=O)N(C6CCC(=O)NC6=O)C7=O)CC5)cc4)nc23)c1 (centres unmarked),"probe labelling, inhibitor, KiNativ chemoproteomics",MOLT-4,1 µM,,inhibition,-36%
COc1cc(Nc2nc(C)cc(-c3cnn4nc(OC)ccc34)n2)cc(C(F)(F)F)c1,inhibitor,,1 µM,relative to: control,remaining activity,93%
CNC(=O)C1CCN(c2cc(C)c(F)cc2NC(=O)c2ccc(-c3cc(O)ccc3C)c(C)c2)CC1,"binding, competition with immobilised ligand",,1 µM,,remaining binding,93%
C=C1CCCCCCCCCC(CO)C1=O (centres unmarked),cell-free assay,,10 µM,,remaining signal,75%
C=CC(=O)N1Cc2nc(-c3cc(-c4cc(Cl)cnc4Cl)c(F)cc3F)n(-c3ccncn3)c2C1,"cell-free assay, inhibitor",,1 µM,,inhibition,-3.6%
Cc1ccc(-c2c(/C=C(\C#N)C(=O)NC(C)C)n(CCCO)c3ncnc(N)c23)cc1,"cell-free assay, competition with immobilised ligand",,1 µM,,remaining binding,92%

# For quick reference, copied from above:
SMILES,test,test system,setting,scale,quantity,value
O=C(Cc1ccc(OCc2ccccc2)cc1)NC1(C(=O)O)CCN(C(=O)c2ccc(-c3cccc(Cl)c3)cc2)CC1,"enzyme activity, inhibitor",,10 µM,,activity vs control,100%
